Earlier results that unrelated publications cite.
Several values in a cell are separate wells, animals, samples, runs or records. Numbers after ± are the reported error.
Gastrin-releasing peptide receptor: Gastrin-releasing peptide receptor (Rattus norvegicus, UniProt P52500)
Genome polyprotein NS3 helicase domain: Genome polyprotein, NS3 helicase domain (Hepatitis C virus genotype 1b, UniProt Q9WMX2)
Protein farnesyltransferase: Protein farnesyltransferase (Rattus norvegicus, UniProt Q02293+Q04631)

For `Cc1ccc(Sc2cccc3[nH]c4nc(N)nc(N)c4c23)cc1`, the IC50 was 40.3 ± 5.1 µM (Platelet-derived growth factor receptor beta (PDGFRB, Homo sapiens, UniProt P09619); kinase activity, inhibitor).
`O=c1c2ccccc2nc2n1CCc1c-2[nH]c2ccccc12` gave an IC50 of 0.02 µM (Cytochrome P450 1A2 (CYP1A2, Homo sapiens, UniProt P05177); enzyme activity, inhibitor; recombinant bacterial membranes; with: 7-ethoxyresorufin).
With `C/C=C1\NC(=O)[C@H]2CSSCC/C=C/[C@H](CC(=O)N[C@H](C(C)C)C(=O)N2)OC(=O)[C@H](C(C)C)NC1=O` the IC50 was 0.0002 µM (Histone deacetylase 1 (HDAC1, Homo sapiens, UniProt Q13547); enzyme activity).
`CC(C)C[C@H](NC(=O)[C@H](CC(C)C)NC(=O)[C@@H](Cc1c[nH]c2ccccc12)NC(=O)[C@H](Cc1ccccc1)NC(=O)[C@@H](Cc1c[nH]c2ccccc12)NC(=O)[C@H](CCC(N)=O)NC(=O)[C@H](CCC(N)=O)NC(=O)[C@@H]1CCCN1C(=O)[C@H](CCCCN)NC(=O)[C@@H]1CCCN1C(=O)[C@H](N)CCCN=C(N)N)C(N)=O` has an IC50 of greater than 10 µM (Gastrin-releasing peptide receptor; binding; literature species comparison).
For `Cc1cc(/C=C/C#N)cc(C)c1Nc1ccnc(Nc2ccc(C#N)cc2)n1`, the IC50 was 0.02 µM (Gag-Pol polyprotein, reverse transcriptase (gag-pol, Human immunodeficiency virus 1, UniProt P03366); reverse transcriptase activity; wild type).
For `Nc1nc(N)c2c(n1)[nH]c1cccc(Sc3ccccc3)c12`, the IC50 was 15.1 ± 3.1 µM (Epidermal growth factor receptor (EGFR, Homo sapiens, UniProt P00533); kinase activity, inhibitor).
With `MGWCTASVPPQCYG` the IC50 was 18.7 µM (Chymotrypsin-like elastase family member 1 (CELA1, Sus scrofa, UniProt P00772); inhibitor; peptide).
With `CCCCOc1ccc(CCC=C2SC(=O)N(CCN)C2=O)cc1` the IC50 was 33.7 µM (Sphingosine kinase 2 (SPHK2, Homo sapiens, UniProt Q9NRA0); enzyme activity, inhibitor).
For `AALEQTER`, the IC50 was 600 µM (Dipeptidyl peptidase 4 (DPP4, Homo sapiens, UniProt P27487); enzyme activity, inhibitor; peptide).
With `O=C1CCOc2cc(OCc3ccc(Br)cc3)ccc21` the IC50 was 0.022 µM (Amine oxidase [flavin-containing] B (MAOB, Homo sapiens, UniProt P27338); enzyme activity, inhibitor).
`O=c1c2ccccc2[se]n1-c1ccccc1` has an IC50 of ~17 µM and 17 µM (horseradish peroxidase; inhibitor).
With `CCNc1nc(Cl)nc(NC(C)C)n1` the IC50 was 20.7 µM (estrogen receptor, alligator; binding; adult female oviduct tissue).
With `C=CCC(Nc1ccccc1)C12C=CC(O1)C(C(=O)OC)=C2C(=O)OC` (centres unmarked) the IC50 was less than 7 µM (human tyrosyl-DNA phosphodiesterase 1; enzyme activity, inhibitor; cellular).
With `O=C(O)c1cc([C@H]2CCN[C@@H]2C(=O)O)ccc1Br` the IC50 was greater than 100 µM (AMPA receptor (rat); binding, [3H]AMPA displacement; rat synaptosomes).
The IC50 of `Cc1ccc2nc(-c3ccc4nc(-c5ccc(NC(=O)c6ccc(C(C)(C)C)cc6)cc5)sc4c3)sc2c1S(=O)(=O)O` is reported as 8.8 ± 3 µM (Genome polyprotein NS3 helicase domain; RNA unwinding).
The IC50 of `O=C1NC(=O)[C@@H](c2cn3c4c(cccc24)CCC3)[C@@H]1c1c[nH]c2ccccc12` is reported as 0.02 to 0.05 µM (c-Met receptor tyrosine kinase; kinase activity, ATP-independent inhibitor).
`COc1c2occc2c(OC)c2c(=O)cc(C)oc12` has an IC50 of 4.02 µM (Cytochrome P450 1A1 (CYP1A1, Homo sapiens, UniProt P04798); HEK293 overexpressing CYP1A1).
The IC50 of `Nc1scc2c(C(=O)NC3CC3)nn(-c3ccc(Cl)cc3)c(=O)c12` is reported as 8 ± 2.48 µM (Microtubule-associated protein tau, K18 fragment (244-369) (MAPT, Homo sapiens, UniProt P10636, P618L); tau K18 fibrillization (ThT), inhibitor; tau 20 µM, with: heparin).
`O=c1cc(-c2ccccc2)oc2cc(O)c(O)c(O)c12` gave an IC50 of 46.2 µM (Xanthine dehydrogenase/oxidase (XDH, Bos taurus, UniProt P80457); inhibitor).
The IC50 of `CC(C)C[C@H](NC(=O)[C@@H](CC(=O)NO)Cc1ccccc1)C(=O)O` is reported as 0.03 to 0.06 µM (thimet oligopeptidase; inhibitor; range reported for several peptidases).
The IC50 of `OC[C@@H](O)[C@@H]1[C@H](O)[C@H](O)CN1Cc1ccccc1` is reported as 690 µM (human Golgi α-mannosidase II; enzyme activity, inhibitor).
For `O=C(O)c1ccc(S(=O)(=O)N(Cc2ccc(OC(F)(F)F)cc2)c2ncc(C(F)(F)F)cc2Cl)cc1`, the IC50 was roughly 0.008 µM (Transient receptor potential cation channel subfamily M member 8 (TRPM8, Homo sapiens, UniProt Q7Z2W7); calcium influx, antagonist; HEK (hTRPM8); with: 30 µM menthol).
With `Cc1ccc(NC(=O)/C=C/c2ccco2)cc1` the IC50 was 174 µM (Nicotinic acetylcholine receptor alpha9/alpha10 (Rattus norvegicus, UniProt P43144+Q9JLB5); inhibitor).
`NS(=O)(=O)c1ccc(-n2nc(C(F)(F)F)cc2-c2ccc(F)cc2F)cc1` has an IC50 of 134 µM (COX-1 (rat seminal vesicles); enzyme activity, inhibitor).
For `O=C(O)CCNC(=S)NCCCC[C@H](NS(=O)(=O)c1cccc(F)c1)C(=O)N[C@@H](Cc1c[nH]c2ccccc12)C(=O)NC1CCC1`, the IC50 was 0.11 µM (NAD-dependent protein deacylase sirtuin-5, mitochondrial (SIRT5, Homo sapiens, UniProt Q9NXA8); desuccinylase activity, inhibitor, fluor de Lys).
With `Cc1ccc2nc(-c3ccc4nc(-c5ccc(NC(=O)c6ccc(Br)cc6)cc5)sc4c3)sc2c1S(=O)(=O)O` the IC50 was 3.8 ± 0.4 µM (Genome polyprotein NS3 helicase domain; RNA unwinding).
For `Nc1nc2c(nc(Sc3ccc(Cl)cc3)n2C2O[C@@H]3COP(=O)(O)O[C@H]3[C@H]2O)c(=O)[nH]1` (stereo in doubt), “Km or Ki” read 53.4 µM (PDE4D; cyclic nucleotide hydrolysis, substrate or inhibitor, isothermal titration calorimetry).
For `NC(=O)c1nc(Nc2ccccc2)sc1NC(=O)C1CCCCC1`, the IC50 was roughly 0.04 µM (Phosphatidylinositol 4-phosphate 5-kinase type-1 gamma (PIP5K1C, Homo sapiens, UniProt O60331); enzyme activity, inhibitor; 20 min preincubation).
`O=C1Cc2ccccc2N1` has an IC50 of 0.39 µM (VEGF receptor 2 (Flk-1); inhibitor).
For `COc1c(O[C@@H]2O[C@H](CO)[C@@H](O)[C@H](O)[C@H]2O)cc2c(c1OC)-c1ccc(SC)c(=O)cc1[C@@H](NC(C)=O)CC2`, the IC50 was 0.2 µM (GABA-A receptor α1β2γ2L; GABA-evoked chloride current, competitive antagonist).
With `Nc1nc2c(ncn2[C@@H]2O[C@H](COP(=O)(O)OP(=O)(O)OP(=O)(O)O)[C@@H](O)[C@H]2O)c(=O)[nH]1` the IC50 was 210 µM (GLUD1 (Homo sapiens, UniProt P00367, H507Y); enzyme activity, allosteric inhibitor; mutant enzyme, reductive amination).
`curcumin` has an IC50 of 9.08 µM (α-glucosidase; concentration not given).
`Cn1cncc1[C@@](N)(c1ccc(Cl)cc1)c1ccc2c(c1)c(-c1cccc(Cl)c1)cc(=O)n2C` gave an IC50 of 0.00086 µM (Protein farnesyltransferase; inhibitor; with: lamin B peptide substrate).
With `COc1ccc(-c2ccc(-c3cn(C(=O)N4CCCCC4c4ccccc4)nn3)cc2)cc1` (centres unmarked) the IC50 was roughly 0.01 µM (Monoacylglycerol lipase ABHD6 (Abhd6, Mus musculus, UniProt Q8R2Y0); competitive ABPP).
With `O=C(/C=C/c1ccc(O)cc1)CC(=O)/C=C/c1ccc(O)cc1` the IC50 was 6 µM (matrix metalloproteinase-3; inhibitor; breast cancer cells).
With `O=C(c1ccc(P(=O)(O)O)cc1O)c1[nH]c(Cl)c(Cl)c1-n1c(C(=O)c2ccc(P(=O)(O)O)cc2O)cc(Cl)c1Cl` the IC50 was 27.3 ± 7.2 µM (Bcl-2-like protein 1, with Bim (BCL2L1, Homo sapiens, UniProt Q07817); inhibitor, ELISA).
For `NCc1ccc(OCc2cccc(F)c2)cc1`, the IC50 was 31 µM (Sodium channel protein type 9 subunit alpha (Mus musculus, UniProt Q62205); inactivated state ion current, inhibitor; CAD).
`CSCC[C@H](NC(=O)[C@H](CC(C)C)NC(=O)[C@@H](Cc1ccccc1)NC(=O)CNC(=O)[C@@H](NC(=O)[C@H](C)NC(=O)[C@H](Cc1c[nH]c2ccccc12)NC(=O)[C@H](CCC(N)=O)NC(=O)[C@H](CC(N)=O)NC(=O)CNC(=O)[C@H](Cc1ccc(O)cc1)NC(=O)[C@H](CCCNC(=N)N)NC(=O)[C@H](CCC(N)=O)NC(=O)[C@@H]1CCC(=O)N1)C(C)C)C(N)=O` has an IC50 of greater than 10 µM (Gastrin-releasing peptide receptor; binding; literature species comparison).
With `CNCCC(Oc1ccc(C(F)(F)F)cc1)c1ccccc1` (centres unmarked) the IC50 was 2 ± 0.4 µM (Neuronal acetylcholine receptor; alpha3/beta4 (Homo sapiens, UniProt P30926+P32297); inhibitor).
The IC50 of `C[C@@H]1COCCN1c1nc(-c2cnc(N)cn2)nc2c1C[C@@H]1COCCN21` is reported as 0.094 ± 0.0025 µM (Akt pSer473; phosphorylation, inhibitor; A2058).
For `O=C1OC2(c3cc(I)c(O)c(I)c3Oc3c2cc(I)c(O)c3I)c2c(Cl)c(Cl)c(Cl)c(Cl)c21`, the IC50 was 0.3 µM (Protein translocase subunit SecA (secA, Pseudomonas aeruginosa, UniProt Q9LCT3); channel activity, inhibitor; Xenopus oocytes).
For `Cc1ccc2nc(-c3ccc4nc(-c5ccc(NC(=O)c6ccc(F)cc6)cc5)sc4c3)sc2c1S(=O)(=O)O`, the IC50 was 4.2 ± 2 µM (Genome polyprotein NS3 helicase domain; RNA unwinding).
`C/C(=N\Cc1ccccc1)c1c(O)c2ccccc2oc1=O` has an IC50 of 1 µM (Myosin-4 (MYH4, Oryctolagus cuniculus, UniProt Q28641); skeletal myosin activity, inhibitor).
With `Cn1cncc1[C@@](N)(c1ccc(Cl)cc1)c1ccc2c(c1)c(-c1cccc(Cl)c1)cc(=O)n2C` the IC50 was roughly 0.001 µM (Protein farnesyltransferase; mammalian enzyme).
`Nc1nc2c(nc(Br)n2[C@@H]2O[C@@H]3COP(=O)(O)O[C@H]3[C@H]2O)c(=O)[nH]1` — result for “Km or Ki”: 30.1 µM (PDE4D; cyclic nucleotide hydrolysis, substrate or inhibitor, isothermal titration calorimetry).
For `O=C(O)c1nn(Cc2ccc(Cl)cc2Cl)c2ccccc12`, the IC50 was roughly 300 µM (respiratory complex II; succinate-ubiquinone reductase activity, inhibitor).
`COC(=O)[C@H](CC(C)C)NC(=O)[C@H](Cc1c[nH]cn1)NC(=O)[C@@H](C)NC(=O)[C@@H](NC(=O)[C@H](C)NC(=O)[C@H](Cc1c[nH]c2ccccc12)NC(=O)[C@H](CCC(N)=O)NC(=O)[C@H](N)Cc1c(F)c(F)c(F)c(F)c1F)C(C)C` has an IC50 of 0.0055 ± 0.0014 µM (Gastrin-releasing peptide receptor).
`Cc1nc2c(O[C@H]3CCOc4cc(F)cc(F)c43)cc(C(=O)N(C)C)cc2[nH]1` gave an IC50 of greater than 30 µM (Cytochrome P450 2C19 (CYP2C19, Homo sapiens, UniProt P33261); enzyme activity, inhibitor; human liver microsomes).
With `N=C(N)c1ccccc1` the IC50 was 196 µM (Degenerin mec-4 (mec-4, Caenorhabditis elegans, UniProt P24612, A713T); concentration not given).
`O=C(Nc1ccc2nc(SCc3ccc(Cl)cc3)sc2c1)c1ccccc1C(=O)N1CCOCC1` has an IC50 of 0.55 µM (G-protein coupled receptor 35 (GPR35, Homo sapiens, UniProt Q9HC97); antagonist).

Excerpt of the above:
For `NCc1ccc(OCc2cccc(F)c2)cc1`, the IC50 was 31 µM (Sodium channel protein type 9 subunit alpha (Mus musculus, UniProt Q62205); inactivated state ion current, inhibitor; CAD).
`CSCC[C@H](NC(=O)[C@H](CC(C)C)NC(=O)[C@@H](Cc1ccccc1)NC(=O)CNC(=O)[C@@H](NC(=O)[C@H](C)NC(=O)[C@H](Cc1c[nH]c2ccccc12)NC(=O)[C@H](CCC(N)=O)NC(=O)[C@H](CC(N)=O)NC(=O)CNC(=O)[C@H](Cc1ccc(O)cc1)NC(=O)[C@H](CCCNC(=N)N)NC(=O)[C@H](CCC(N)=O)NC(=O)[C@@H]1CCC(=O)N1)C(C)C)C(N)=O` has an IC50 of greater than 10 µM (Gastrin-releasing peptide receptor; binding; literature species comparison).
With `CNCCC(Oc1ccc(C(F)(F)F)cc1)c1ccccc1` (centres unmarked) the IC50 was 2 ± 0.4 µM (Neuronal acetylcholine receptor; alpha3/beta4 (Homo sapiens, UniProt P30926+P32297); inhibitor).
The IC50 of `C[C@@H]1COCCN1c1nc(-c2cnc(N)cn2)nc2c1C[C@@H]1COCCN21` is reported as 0.094 ± 0.0025 µM (Akt pSer473; phosphorylation, inhibitor; A2058).
